Measured values from different studies.
Each numbered part is a random draw from the data of one study; scales do not carry over between parts. Positions count from the first letter of the parent shown.

Study 1 — organism: Saccharomyces cerevisiae; effect on: binding; method: competitive growth deep sequencing; form: peptide; strain: cyclin E1-Cln2 fusion strain; setting: peptide tiling library; direction: direction not given; measurement: enrichment score
Sequence = MNQELLSVGSKRRRTG; result = 2.37
Sequence = VLLKRLQDVVSERANH; result = -0.768
Sequence = ISRLFPPRTPGWHQLQ; result = -1.94
Sequence = KSKHEEEEWTDDDLVE; result = 1.11
Sequence = LKGRRLVFDN; result = -0.796
Sequence = RDLFDCDFGDLTPLDF; result = 1.88
Sequence = KDDDKAWEYEERDRRS; result = 0.411
Sequence = PLRKAKRARLCSSSSS; result = 1.81
Sequence = RVSGLLSWTLSRVLWL; result = -0.558
Sequence = AGSAKRRLFGEDPPKE; result = 2.97
Sequence = RSLKLDGLLEEN; result = -1.12
Sequence = ESSTVSEEDYFSSHRD; result = 1.22
Sequence = SFLIEYEFLIPPSLKP; result = 2.04

Study 2 — method: protein-binding microarray; form: double-stranded DNA, one strand shown; matrix: in vitro; concentration: 0.8 µM; setting: whole 60-bp probe, no competitor; direction: higher = stronger binding; measurement: fluorescence intensity
Target: Centromere-binding protein 1, full length, N-terminal tag (CBF1, Saccharomyces cerevisiae, UniProt P17106, residues 1-351)
Chain of UniProt P17106 (whole entry, looked up): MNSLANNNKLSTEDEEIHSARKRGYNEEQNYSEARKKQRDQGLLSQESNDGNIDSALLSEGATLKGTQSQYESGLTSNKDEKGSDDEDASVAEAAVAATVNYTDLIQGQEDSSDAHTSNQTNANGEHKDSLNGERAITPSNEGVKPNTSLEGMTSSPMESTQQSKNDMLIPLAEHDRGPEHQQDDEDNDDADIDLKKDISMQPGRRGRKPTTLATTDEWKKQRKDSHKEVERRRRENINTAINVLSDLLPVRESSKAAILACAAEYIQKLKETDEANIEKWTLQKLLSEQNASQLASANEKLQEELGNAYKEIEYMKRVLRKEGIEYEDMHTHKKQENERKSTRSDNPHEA
Sequence = TGTACGAAGCTATCAAACGTGAATATAGTAGTTAGGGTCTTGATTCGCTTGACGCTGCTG; result = 525 a.u.
Sequence = GAACATCAAATGGAAGACATCAGCAGTTACACTTAGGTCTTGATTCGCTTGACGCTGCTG; result = 507 a.u.
Sequence = GAAGGGAATGTGGAGTATCTGATGTAACACTGTTAGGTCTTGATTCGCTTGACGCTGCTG; result = 514 a.u.
Sequence = GAAATAGATCCTGAGAACGTGTTTAACATCTGCTAGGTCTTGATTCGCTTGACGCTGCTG; result = 616 a.u.
Sequence = CTAGGGAATATAAGTATGGTGATGAGTATTACCTTCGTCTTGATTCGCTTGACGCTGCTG; result = 585 a.u.
Sequence = TGTACGAAGCTATTTTGTGACACTATAGTAGTTAGGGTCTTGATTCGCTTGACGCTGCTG; result = 538 a.u.
Sequence = CTAGGAGGATCTAATGGTGACATAGTCCATTTCTTCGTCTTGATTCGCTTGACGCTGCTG; result = 492 a.u.
Sequence = GAAAAACGTATATAAGCGCTGATGTTTTGCTAATAGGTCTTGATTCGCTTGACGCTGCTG; result = 512 a.u.
Sequence = CTATGCTTTTGTTCGCATGTGGTGTTATTCCAGTTCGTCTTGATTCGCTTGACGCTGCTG; result = 792 a.u.
Sequence = GAACTATGCTAACATGATGCCACTACGTTTGTGTAGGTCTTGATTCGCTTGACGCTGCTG; result = 514 a.u.
Sequence = GAACGTATTCTTGTGCACACGCCTGTTACTTCTTAGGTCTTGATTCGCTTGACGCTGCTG; result = 557 a.u.
Sequence = CCTAACTACTATAAAAGCGTGTCATAGCTTCGTACAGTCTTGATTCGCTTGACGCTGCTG; result = 519 a.u.
Sequence = CTAACCACCATAGGCACCACCACTGTTTGTGTATTCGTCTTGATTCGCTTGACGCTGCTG; result = 498 a.u.
Sequence = CTACTACCACACTTTCATGTGATGAAACGTGAATTCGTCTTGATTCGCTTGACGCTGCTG; result = 839 a.u.
Sequence = TGTACGAAGCTATTAACACGTGATATAGTAGTTAGGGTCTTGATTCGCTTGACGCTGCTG; result = 10600 a.u.
Sequence = CTAATTTCCCATAGTCTCATGAAAATTCCTGGCTTCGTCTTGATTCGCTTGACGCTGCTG; result = 507 a.u.
Sequence = CCTAACTACTATAGTCACATGCAATAGCTTCGTACAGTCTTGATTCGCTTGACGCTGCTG; result = 2650 a.u.
Sequence = CTAAAAGCTCAGTCGCGCGTGGCCTTTCTCTATTTCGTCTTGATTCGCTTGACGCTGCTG; result = 465 a.u.
Sequence = GAATTTGGAGTTAGGGTTGTGATCATTGACGATTAGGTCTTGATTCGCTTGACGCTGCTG; result = 556 a.u.
Sequence = CTACTCCATTGAATTGAGGTGACGATGGATAAATTCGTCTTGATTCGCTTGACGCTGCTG; result = 518 a.u.
Sequence = GAAGTCAGGCCACGTCTCCTGTGGCAAAGTGGGTAGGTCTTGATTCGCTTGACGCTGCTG; result = 512 a.u.

Study 3 — method: protein-binding microarray; form: double-stranded DNA, one strand shown; matrix: in vitro; concentration: 2200 nM top; setting: 60-bp whole probe; with: salmon DNA 0.4 mg/ml; relative to: random background probes; direction: higher = stronger binding; measurement: fitted relative affinity; constant ends, left off below: GCCTAGCAC … GTCTTGATTCGCTTGACGCTGCTG
Target: Interferon regulatory factor 7, full length, phosphomimetic (IRF7, Homo sapiens, UniProt Q92985, residues 1-503, S471D/S472D/S475D/S476D/S477D/S483D/S484D/S487D)
Construct (chain): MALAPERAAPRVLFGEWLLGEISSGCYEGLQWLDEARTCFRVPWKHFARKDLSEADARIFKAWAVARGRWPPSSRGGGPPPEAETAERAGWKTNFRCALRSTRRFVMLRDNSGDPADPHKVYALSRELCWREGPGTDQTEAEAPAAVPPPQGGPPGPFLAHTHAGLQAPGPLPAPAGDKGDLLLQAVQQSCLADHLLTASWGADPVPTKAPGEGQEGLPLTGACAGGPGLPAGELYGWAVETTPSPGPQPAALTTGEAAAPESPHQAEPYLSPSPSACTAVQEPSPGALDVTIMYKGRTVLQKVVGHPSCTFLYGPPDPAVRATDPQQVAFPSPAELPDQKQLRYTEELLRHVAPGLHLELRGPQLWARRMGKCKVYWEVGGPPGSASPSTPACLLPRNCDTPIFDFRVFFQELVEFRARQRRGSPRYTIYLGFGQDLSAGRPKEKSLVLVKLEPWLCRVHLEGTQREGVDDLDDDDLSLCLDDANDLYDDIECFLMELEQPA
Sequence = TTAGGTTTCGTTCTCCTTTAGTGCTAG; result = 7.74 z-score
Sequence = GGGCATTTGGAAAATGTAAACGTGCTA; result = -0.678 z-score
Sequence = GACGGTATCGGAGTGGGGACGTGCTAG; result = -0.679 z-score
Sequence = TCATCTTTATGCACTCTCACTGTGCTA; result = 1.25 z-score
Sequence = GACGATATCAGTTTCGAGAGGTGCTAG; result = 2.33 z-score
Sequence = CTAGATCTCAGTTTCGATTAGTGCTAG; result = 5.79 z-score
Sequence = GACGATATCCGTTTCGAGACGTGCTAG; result = 2.69 z-score
Sequence = TTAGGTCTCCTACAGCTTTAGTGCTAG; result = 0.165 z-score
Sequence = GACGATTTCAGGATCGAGACGTGCTAG; result = 0.729 z-score
Sequence = TCACCTTTCTGCCTCAGACTGTGCTAG; result = 2.23 z-score
Sequence = GATGGACTGCTACTGCTGACGTGCTAG; result = 0.0891 z-score
Sequence = TTTGATTCCAGTTTCGATTAGTGCTAG; result = 6.57 z-score
Sequence = TTAGATTTAGGGACTGGATTAGTGCTA; result = -0.661 z-score
Sequence = GGCGAACTGGGGTATCGAGACGTGCTA; result = -0.772 z-score
Sequence = GACGAACTGTGTCTCGAGACGTGCTAG; result = 0.394 z-score
Sequence = GACGGTTCCCTTTTCCTGCCGTGCTAG; result = 2.45 z-score
Sequence = TCAGTGCTCCTTTTAATACTGTGCTAG; result = 0.607 z-score
Sequence = TCACTTCTAATATTCATACTGTGCTAG; result = 1.59 z-score
Sequence = TAAGGTTTCCTACTGCTTTAGTGCTAG; result = 0.902 z-score
Sequence = ACCTTTGTTTTTTTCTATATGTGCTAG; result = 2.52 z-score
Sequence = TCAAATCTCACTCTGTCACTGTGCTAG; result = 0.847 z-score
Sequence = TTAGGTCTCCCACTGCTTTAGTGCTAG; result = 0.643 z-score
Sequence = TTAGGACTGCTTCTCGTTTAGTGCTAG; result = 0.816 z-score
Sequence = GACGGGTTCCTTTTCCTGACGTGCTAG; result = 1.65 z-score
Sequence = TTAGGTATAGACACTGGGTTAGTGCTA; result = -0.388 z-score

Study 4 — method: DHFR PCA, deep sequencing; matrix: yeast; with: (+)-ABA 0.11 µM; relative to: wild-type fitted maximum; direction: higher = stronger binding; measurement: relative binding score
Target: ABI1, truncated, D143A, DHFR fusion (Arabidopsis thaliana)
Setting: methotrexate growth selection, single substitutions
Starting sequence: PYL1, truncated, DHFR fusion (Arabidopsis thaliana); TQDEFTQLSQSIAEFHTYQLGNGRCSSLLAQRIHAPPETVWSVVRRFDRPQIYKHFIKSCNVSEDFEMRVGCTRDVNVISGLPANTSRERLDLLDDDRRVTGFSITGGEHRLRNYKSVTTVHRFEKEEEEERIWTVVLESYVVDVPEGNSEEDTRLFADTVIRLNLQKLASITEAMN
Change = E139W; result = 11.3%
Change = E14W; result = -1.5%
Change = S59I; result = 3.23%
Change = A13P; result = -0.459%
Change = P50R; result = -0.933%
Change = A13S; result = 31.1%
Change = R132F; result = 13.2%
Change = D144Q; result = -0.304%
Change = Y18D; result = 0.992%
Change = W41F; result = -2.64%
Change = A30Y; result = 16.3%
Change = S80H; result = 31%
Change = Y53M; result = -2.25%
Change = E127V; result = 35.8%
Change = E174C; result = 5.03%
Change = N22E; result = 47.5%
Change = S27E; result = 2.65%
Change = S11P; result = 48.6%

Study 5 — method: RNA Bind-n-Seq; form: RNA; matrix: in vitro; concentration: not given; relative to: input RNA pool; direction: higher = stronger binding; measurement: bound/input enrichment
Target: RING finger protein unkempt homolog, zinc fingers 1-6, GST-SBP tag (UNK, Homo sapiens, UniProt Q9C0B0, residues 30-357)
Chain of UniProt Q9C0B0 (30-357, looked up): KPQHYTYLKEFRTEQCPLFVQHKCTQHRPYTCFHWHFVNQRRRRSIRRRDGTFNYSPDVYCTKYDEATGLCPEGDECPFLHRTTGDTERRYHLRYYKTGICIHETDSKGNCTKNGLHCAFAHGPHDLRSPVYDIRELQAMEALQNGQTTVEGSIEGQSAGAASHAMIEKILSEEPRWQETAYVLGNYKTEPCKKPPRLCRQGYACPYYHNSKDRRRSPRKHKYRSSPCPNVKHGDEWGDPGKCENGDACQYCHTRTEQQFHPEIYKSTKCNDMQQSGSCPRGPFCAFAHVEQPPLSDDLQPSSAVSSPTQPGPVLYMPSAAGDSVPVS
Setting: RNA with constant flanks, human-mouse chimeric sites, ends assumed
Sequence = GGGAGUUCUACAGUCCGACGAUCAAUAGAGGAUCCACCUCCCAAAGUGCUGGGAGUAAAGGUGUGGCCACCACACCUAACUUCAUAGACAUAUAUUUUUUUUAAUAUGAAUCUUCCUGUUCGUCCAGGGAAGAAAGAUUUGUUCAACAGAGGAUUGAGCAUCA; result = 7.66 ratio
Sequence = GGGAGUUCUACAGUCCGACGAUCCCAAUCGUGGAGCAGUACUUGAAGACAAAGAAAAAUUCUAAUAAUUUAAUCAUCAAGUACAUUAGCUGCCGCCUGCUGACACUCAUCGUUAUACUGUUAGCGUGUAUCUACCUGGGCUAUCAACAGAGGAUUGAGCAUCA; result = 0.288 ratio
Sequence = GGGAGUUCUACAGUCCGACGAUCCUGUGUGUGCUGAAUAAAUGGCUUGUAAAGAAGUUUUUCCAAGCUGUACCCAUGUACGUUAUUAUAGUUGCUGCAAAAUGUUCUUCCUAUUGAUGUUUUUAUUUGUUAACUGAAGGUCUCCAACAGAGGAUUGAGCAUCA; result = 0.296 ratio
Sequence = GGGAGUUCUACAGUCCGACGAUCCACAGAGGCACCACCCCCCCCUCCUCCUUUCCACACCUGCAAACUCUUUUACUUGGGCUGAAUAUUUAGUGUAAUUACAUCUCAGCUUUUGAGGGCUCUGUGGCAAAUUCCCGGAUUAAACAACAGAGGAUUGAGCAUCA; result = 1.47 ratio
Sequence = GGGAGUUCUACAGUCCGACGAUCCACGUGUCUGCAGUACUUGAUGUGGACUACUCUCCCACUGGGAAGGAAUUUGUGUCUGCCAGCUUUGAUAAGUCUAUUAGAAUCUUUCCUGUGGACAAAAGUCGAAGCAGGGAGGUAUAUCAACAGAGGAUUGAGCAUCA; result = 0.34 ratio
Sequence = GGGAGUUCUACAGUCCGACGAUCGUCAACAGCUGCCUCAACCCCAUCCUCUACGCCUUCCUGGAUGAGAACUUCAAGGCCUGCUUUAGAAAGUUCUGCUGUGCAUCUGCCCUGCGCCGGGAGAUGCAGGUGUCUGACCGCGUGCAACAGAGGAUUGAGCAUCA; result = 0.273 ratio

Excerpt of the above (study 2):
Sequence = TGTACGAAGCTATTTTGTGACACTATAGTAGTTAGGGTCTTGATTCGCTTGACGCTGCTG; result = 538 a.u.
Sequence = CTACTACCACACTTTCATGTGATGAAACGTGAATTCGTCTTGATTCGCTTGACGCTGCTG; result = 839 a.u.
Sequence = CTAGGAGGATCTAATGGTGACATAGTCCATTTCTTCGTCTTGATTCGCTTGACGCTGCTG; result = 492 a.u.
Sequence = CCTAACTACTATAAAAGCGTGTCATAGCTTCGTACAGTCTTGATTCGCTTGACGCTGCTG; result = 519 a.u.
Sequence = CTAACCACCATAGGCACCACCACTGTTTGTGTATTCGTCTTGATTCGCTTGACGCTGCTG; result = 498 a.u.
Sequence = TGTACGAAGCTATCAAACGTGAATATAGTAGTTAGGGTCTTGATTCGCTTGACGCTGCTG; result = 525 a.u.
Sequence = CTATGCTTTTGTTCGCATGTGGTGTTATTCCAGTTCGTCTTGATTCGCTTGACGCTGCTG; result = 792 a.u.
Sequence = GAAGTCAGGCCACGTCTCCTGTGGCAAAGTGGGTAGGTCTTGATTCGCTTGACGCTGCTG; result = 512 a.u.
